Published values of several laboratories.
Numbered parts are unrelated; each lists some results of a single study.

Series 1
Target: Interferon regulatory factor 3, full length, phosphomimetic (IRF3, Homo sapiens, UniProt Q14653, residues 1-427, S386D/S396D/S398D/S402D/T404D/S405D)
Technique: protein-binding microarray
Molecule type: double-stranded DNA, one strand shown
Medium: in vitro
Concentration: 2540 nM top
Notes: 60-bp whole probe
Together with: salmon DNA 0.4 mg/ml
Reference: random background probes
Reading: higher = stronger binding
Measurement: fitted relative affinity
All sequences stand within: GCCTAGCAC … GTCTTGATTCGCTTGACGCTGCTG
Target sequence (chain): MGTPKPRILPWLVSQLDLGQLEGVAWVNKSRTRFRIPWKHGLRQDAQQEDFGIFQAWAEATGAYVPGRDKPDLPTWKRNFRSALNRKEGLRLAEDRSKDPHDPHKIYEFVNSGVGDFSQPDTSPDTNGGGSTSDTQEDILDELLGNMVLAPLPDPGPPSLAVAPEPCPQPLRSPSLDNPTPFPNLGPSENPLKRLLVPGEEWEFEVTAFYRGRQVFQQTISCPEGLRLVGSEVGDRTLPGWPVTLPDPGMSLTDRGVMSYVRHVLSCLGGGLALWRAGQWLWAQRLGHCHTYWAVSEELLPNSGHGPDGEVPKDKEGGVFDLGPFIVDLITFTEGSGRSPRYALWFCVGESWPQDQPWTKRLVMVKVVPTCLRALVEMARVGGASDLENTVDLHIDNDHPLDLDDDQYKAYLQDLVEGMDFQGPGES
GACGGTTACGGTTTCGGGACGTGCTAG: 3.83 z-score
AGGAGTATTTATCTGCAAAGGTGCTAG: -0.0452 z-score
TCAGACTTTGGTTTGTAACTGTGCTAG: -0.305 z-score
GACGGTATCCTTATCCTAACGTGCTAG: 5.59 z-score
CCATCTCTGCTCCTTCTGACAGTGCTA: 2.49 z-score

Series 2
Target: Protein C-ets-1 (ETS1, Homo sapiens, UniProt P14921, residues 1-441, K379A, full length assumed)
Technique: protein-binding microarray
Molecule type: double-stranded DNA, one strand shown
Medium: in vitro
Concentration: not given
Notes: k-mer, scored over probes, only values ≥0.25
Reading: higher = stronger binding
Measurement: E-score
Construct (chain): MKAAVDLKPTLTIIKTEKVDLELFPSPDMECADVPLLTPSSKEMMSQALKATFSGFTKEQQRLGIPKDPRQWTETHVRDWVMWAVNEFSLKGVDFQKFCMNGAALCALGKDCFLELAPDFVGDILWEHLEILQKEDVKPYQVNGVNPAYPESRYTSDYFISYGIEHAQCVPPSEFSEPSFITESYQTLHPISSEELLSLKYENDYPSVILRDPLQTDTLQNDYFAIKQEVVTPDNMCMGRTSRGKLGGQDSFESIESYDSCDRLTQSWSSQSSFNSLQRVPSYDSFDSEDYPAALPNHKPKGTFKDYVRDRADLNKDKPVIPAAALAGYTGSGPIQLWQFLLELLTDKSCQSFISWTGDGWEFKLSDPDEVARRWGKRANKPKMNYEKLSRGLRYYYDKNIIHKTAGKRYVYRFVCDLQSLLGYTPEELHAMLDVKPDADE
ACCCCGGT: 0.393
CGGAAATA: 0.298
CGTTACAG: 0.253
TAATTATA: 0.297
ACCGGGAC: 0.474

Series 3
Target: RNA binding protein fox-1 homolog 2, RRM domain, GST-SBP tag (RBFOX2, Homo sapiens, UniProt O43251-10, residues 100-194)
Technique: RNA Bind-n-Seq
Molecule type: RNA
Medium: in vitro
Concentration: 365 nM
Notes: natural RNA segment, single round, ends assumed
Reference: no-protein control
Reading: higher = stronger binding
Measurement: RBNS enrichment (R)
All sequences stand within: GGGAGUUCUACAGUCCGACGAUC … UGGAAUUCUCGGGUGCCAA
Target sequence (chain): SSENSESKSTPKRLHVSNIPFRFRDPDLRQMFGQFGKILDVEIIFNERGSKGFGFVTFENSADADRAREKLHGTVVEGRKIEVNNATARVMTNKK
UGUUUUUUUGUUUGUGAACUAGCUGUAUCCGCUUAGAAUGGUAACACAGAUGGUCGCUGCAAGCAGAUCCCUCUGAGCCUCUCUUCUGCUAGUGCCUGGCUUGCCACAUG: 0.409
AGGGGUUGUAGCCUUGCUGGGCAGCCUCUCAGAGCAAGGUUGUUCAGAUCUCCCUUGCUAUUACAGUAGGUUACUAUUAAUGAGGGCAGCACCUGAUGCCUUUUGUACUG: 1.06
AAACAAUUGGAGGAGCUGCCCAGGCAGUUUUAUGGCCUCCUGGUUGUGUGCCUUCACACCCGCCUACAGCCCCACCUCACCAUCAAGCGCUGAGCCAAUGCGGGUGUGGC: 0.256
GCCAUGAGCUACCCACUGGCAUCUCCAGGUUUUUUGUAGCAAACAGCCACUUAGUGCUUUGUCCUGGACUCCGCUCAGCCUGAGGCUGGGGAAUAGAAAGGGCAGACCCC: 0.229
CAGUGUACAAAAUAUGAAACAACUGUUUCCACACUUGCACCUGAUCAAGAGCAGUGCUUCUCCAUUUGUUUUGCAGAGAAAUGUUUUUCAUUUCCCGUGUGUUUCCAUUU: 0.326

Further values, each from its own experiment
PhoQ, residues 284 288 289 292 302 303 ALVSVA
fold induction (PhoP, residues 12 14 15 18 19 HEGLL (Escherichia coli, UniProt P23836); Sort-seq, measured: YFP reporter; E. coli; PhoQ-PhoP variant library, together with: 10 µM Mg2+; reference: high Mg2+ state, higher = stronger signaling): 1.4

For quick reference, copied from above (series 3):
GCCAUGAGCUACCCACUGGCAUCUCCAGGUUUUUUGUAGCAAACAGCCACUUAGUGCUUUGUCCUGGACUCCGCUCAGCCUGAGGCUGGGGAAUAGAAAGGGCAGACCCC: 0.229
